Experimental data gathered from unrelated publications.
Compare with care: the assays were run in different laboratories. ± marks the error that the study gave.

CC[C@H](C)[C@H](NC(=O)[C@H](CC(C)C)NC(=O)[C@@H](NC(=O)[C@@H](NC(=O)[C@H](CCSC)NC(C)=O)[C@@H](C)CC)[C@@H](C)CC)C(=O)N[C@H](C(=O)N[C@@H](CO)C(=O)N[C@@H](Cc1ccccc1)C(=O)N1CCC[C@H]1C(=O)N[C@@H](CCCCN)C(=O)N[C@@H](Cc1c[nH]cn1)C(=O)N[C@@H](CCCCN)C(=O)N[C@@H](CC(=O)O)C(=O)N[C@@H](Cc1c[nH]c2ccccc12)C(=O)N[C@@H](CCCCN)C(=O)N[C@H](C(=O)N[C@H](C(=O)N[C@@H](CC(C)C)C(=O)N[C@H](C(=O)N[C@@H](CCCCN)C(N)=O)C(C)C)[C@@H](C)CC)C(C)C)[C@@H](C)CC — result for TNF-α production: “inhibited” (SLE patient PBMCs; dose not given).
For CC[C@H](C)[C@H](NC(=O)[C@H](Cc1ccccc1)NC(=O)[C@H](CC(=O)O)NC(=O)[C@H](CCCCN)NC(=O)[C@H](C)NC(=O)[C@H](CCCCN)NC(=O)[C@H](CC(N)=O)NC(=O)[C@H](CC(C)C)NC(=O)[C@H](Cc1c[nH]c2ccccc12)NC(=O)[C@H](CCC(=O)O)NC(=O)[C@H](CCCCN)NC(=O)[C@@H](NC(=O)CNC(=O)[C@H](C)N)[C@@H](C)O)C(=O)N[C@@H](CCCCN)C(=O)N[C@@H](CCC(=O)O)C(=O)N[C@@H](CCCCN)C(=O)NCC(=O)N[C@@H](CC(C)C)C(=O)NCC(=O)N[C@@H](CCSC)C(=O)N[C@@H](CC(C)C)C(=O)N[C@@H](CCCNC(=N)N)C(=O)N[C@@H](C)C(=O)N[C@@H](C)C(=O)N[C@@H](C)C(=O)N[C@@H](CC(N)=O)C(=O)N[C@@H](C)C(=O)N[C@@H](C)C(=O)N[C@@H](CC(C)C)C(=O)N[C@@H](CC(N)=O)C(=O)O, the EC50 was over 100 µM (HEK293 cells; intracellular calcium, FLIPR; 0.1% BSA).
For CC[C@@]1(O)C(=O)OCc2c1cc1n(c2=O)Cc2cc3cc(OC(=O)CCCC(=O)NCC(=O)N[C@@H](Cc4ccccc4)C(=O)N[C@@H](Cc4ccccc4)C(=O)N[C@@H](Cc4ccc(OP(=O)(O)O)cc4)C(=O)NCCSSCCNC(=O)CCC(=O)N[C@@H](CCC(=O)O)C(=O)N[C@@H](CCCNC(=N)N)C(=O)NCC(=O)N[C@@H](CC(=O)O)C(=O)O)ccc3nc2-1, the spheroid volume was 20% (HepG2 spheroids; 100 µM, 7 days; relative to: initial).
Under “mRNA level reduction”, CN1C(=O)C2(Cc3ccc(CC45SSC(CO)(C(=O)N4C)N(C)C5=O)cc3)SSC1(CO)C(=O)N2C (racemic) is recorded as over 50% (MCF7; qRT-PCR, measured: VEGF; 200 nM, added: deferoxamine 300 µM).
For [Cl][Ag].[Se]=c1n(C2CCCCC2)ccn1C1CCCCC1, the IC50 was 4.4 ± 0.3 µM (LoVo-OXP (oxaliplatin-resistant); MTT; 72 h).
With C=C1C(=O)O[C@H]2[C@H]1CCC(C)=C1[C@H](OC(=O)c3ccc(F)cc3)C[C@@](C)(O)[C@@H]12 the CC50 was 14.7 µM (M9-ENL1 leukaemia cells; annexin V/7-AAD flow cytometry; 24 h, 5% human plasma).
COc1cc(C)cc2c1OCO2 has a GI50 of 12.5 µM (T47D; cell growth or viability, MTT; 72 h).
With O=C(Nc1ccc(Br)cc1)c1cc(Br)cc(Br)c1O the IC50 was 9.1 µM (patient-derived fibroblasts; cell growth, PrestoBlue; 72 h).
The EC50 of Cc1cccc(-c2cccc(C)n2)n1.[Cl-].[Cl-].[Ru+2].c1ccc(-c2ccccn2)nc1.c1ccc(-c2ccccn2)nc1 is reported as 8.3 ± 1.2 µM (A549; cytotoxicity, resazurin; 72 h, light irradiation 5 min, λ>400 nm).
With COc1cc2c3cc1Oc1cc(ccc1O)CC1c4c(cc(OC)c(O)c4Oc4ccc(cc4)CC3N(C)CC2)CCN1C (centres unmarked) the selectivity index was 123 (Huh-7; relative to: Huh-7 CC50 over INDO IC50).
For C[C@@H](O)[C@H](NC(=O)[C@H](CO)NC(=O)[C@H](CO)NC(=O)[C@@H](N)CCCCN)C(=O)N[C@@H](CCCNC(=N)N)C(=O)NCC(=O)N[C@@H](CCCNC(=N)N)C(=O)N[C@@H](CCCCN)C(=O)N[C@@H](CO)C(=O)N[C@@H](CO)C(=O)N[C@@H](CCCNC(=N)N)C(=O)N[C@@H](CCCNC(=N)N)C(=O)N[C@@H](CCCCN)C(=O)N[C@@H](CCCCN)C(=O)O, “LPS effect on degranulation” read “no effect” (LAD2; agonist; 10 µM, added: Escherichia coli LPS 100 µg/mL, 5 min preincubation).
Cc1cc(Nc2nc(C[C@@]3(C(=O)O)CCN(Cc4cccc(Cl)c4F)[C@H](C)C3)cc(C)c2F)[nH]n1: “G2/M phase cells” “increased” (NCI-H446; cell cycle, flow cytometry; concentration not given, 24 h).
The GI50 of Cc1cccc(O)c1C(=O)OCC1(O)C(Nc2ccc3c(c2)Cc2ccccc2-3)C(N)C(NC(=O)N(C)C)(C(C)O)C1(C)O (centres unmarked) is reported as 1.37 µM (DU-145; cell growth or viability, SRB).
With O=C(O)c1ccc([PH]([Au][Cl])(c2ccccc2)c2ccccc2)cc1 the IC50 was 45.7 µM (CAKI-1; cell growth or viability, resazurin; 72 h).
With C=CCc1cc(OC)c(OC)c(OC)c1OC the GI50 was over 250 µM (A-375; cell growth or viability, MTT; 72 h).
The EC50 of CC(C)C(C)C=CC(C)C1CCC2C1(C)CCC1C23C=CC2(CC(OC(=O)CCCCC4SCC5NC(=O)NC54)CCC12C)OO3 (centres unmarked) is reported as over 10 µM (T47D; cell growth or viability, ATP luminescence).
With C[P+](c1ccccc1)(c1ccccc1)c1ccccc1 the GI50 was 3.33 µM (T47D; cell growth or viability, MTT; 72 h).
Cc1ccc(Nc2ncc3c(n2)N(C)C(=O)N(c2cc(NC(=O)c4cc(-n5cnc(C)c5)cc(C(F)(F)F)c4)ccc2C)C3)cn1 gave a GI50 of 0.037 µM (Huh-7; cell growth or viability, ATP luminescence; 72 h).
For CCC[P+](c1ccccc1)(c1ccccc1)c1ccccc1, the GI50 was 2.39 µM (T47D; cell growth or viability, MTT; 72 h).
Under protein level, C[C@H](NC(=O)[C@H](CCCNC(=N)N)NC(=O)[C@H](CCC(=O)O)NC(=O)[C@H](CCCNC(=N)N)NC(=O)[C@H](CCCNC(=N)N)NC(=O)[C@@H](NC(=O)[C@H](CCCNC(=N)N)NC(=O)[C@H](C)NC(=O)[C@H](CCCNC(=N)N)NC(=O)[C@H](CCC(=O)O)NC(=O)[C@@H](N)CCCNC(=N)N)[C@@H](C)O)C(=O)N[C@@H](CCCNC(=N)N)C(=O)N[C@H](C(=O)N[C@@H](CCCNC(=N)N)C(=O)N[C@@H](CCC(=O)O)C(=O)N[C@@H](CCCNC(=N)N)C(=O)N[C@@H](C)C(=O)N[C@@H](CCCNC(=N)N)C(=O)N[C@H](C(=O)N[C@@H](CCCNC(=N)N)C(=O)O)[C@@H](C)O)[C@@H](C)O is recorded as “increased” (A-375; western blot, measured: VEGF165b; 25 µM).
CCCCCCCCC[P+](c1ccccc1)(c1ccccc1)c1ccccc1 has a GI50 of 1.23 µM (DU-145; cell growth or viability, MTT; 72 h).
The CC50 of CC/C=C\C/C=C\C/C=C\C/C=C\C/C=C\C/C=C\CCC(=O)Nc1ccn(C2OC(CO)C(O)C2(F)F)c(=O)n1 (centres unmarked) is reported as 46 µM (NCI-H322M; NCI60 screen).
Cc1cc(C)c(N2CCN(c3c(C)cc(C)cc3C)C2=[Se])c(C)c1.[Cl][Ag] gave a resistance factor of 1 (A2780 ADR; MTT; relative to: A2780 ADR over A2780).
COc1c(C)cc2c(c1OC)OCO2 gave a GI50 of over 250 µM (T47D; cell growth or viability; 72 h).
For CNC(=O)c1cc(Oc2ccc(NC(=O)c3ccc(-c4cccc(COC(=O)CCC(=O)OC5OC6OC7(C)CCC8C(C)CCC(C5C)C68OO7)c4)cn3)cc2)ccn1 (centres unmarked), “G0/G1 phase cells” read 38% (Huh-7; PI staining, flow cytometry; concentration not given, 24 h).
CCCCCCN(CCCCCC)[C@H]1C=C[C@]2(O[C@H]([C@@H](CC)C(=O)[C@@H](C)[C@@H](O)[C@H](C)[C@@H]3O[C@@H]([C@@H](CC)C(=O)O)CC[C@@H]3C)[C@@H](C)C[C@H]2C)O[C@@]12CC[C@@](C)([C@H]1CC[C@](O)(CC)[C@H](C)O1)O2 has a selectivity ratio of 13.3 (HMLER CD24low/CD44high; cell viability, CellTiter-Blue; 72 h; relative to: IC50 HMLER CD24high/CD44low over CD24low/CD44high).
CC(C)CC(O)(CC(C)C)c1cn(C(=O)N2CCCC2)nn1 gave a protein level of 1.01 ± 0.11 (mouse T-cells; SILAC proteomics, measured: FDX1; 1 nM, 6 h, unit not given; relative to: DMSO).
Under “adherent cell number”, N=C(N)NCCC[C@H](N)C(=O)NCC(=O)N[C@@H](CC(=O)O)C(=O)O is recorded as 33 ± 8 (NIH 3T3 fibroblasts; peptide-functionalised PEG-glass; concentration not given, 4 h, serum-free, per 10× image).
With COc1cc(C)c(OC)c2c1OCO2 the GI50 was over 250 µM (A-375; cell growth or viability, MTT; 72 h).
Under “TCF4 intron 3 level”, N=C(N)Nc1ccc(-c2nc3ccc(-c4ccc5nc(-c6ccc(NC(=N)N)cc6)[nH]c5c4)cc3[nH]2)cc1 is recorded as “no effect” (FECD cells, XRN1 siRNA knock-down; RT-qPCR; concentration not given).
Under protein level, C=C(C)C12OC3(c4ccccc4)OC1C1C(O)C(Br)(CO)C(O)C4(O)C(=O)C(C)=CC4C1(O3)C(C)C2OC(=O)c1ccccc1 (centres unmarked) is recorded as “no effect” (C4-2B; immunoblotting, measured: importin-β1; concentration not given, 24 h).
CC[C@H](C)[C@H](NC(=O)[C@H](CCC(=O)O)NC(=O)CNC(=O)[C@@H](NC(=O)[C@H](CC(C)C)NC(=O)[C@H](CC(C)C)NC(=O)[C@H](CC(C)C)NC(=O)[C@H](CC(C)C)NC(=O)[C@H](CS)NC(=O)[C@H](CO)NC(=O)[C@H](Cc1ccccc1)NC(=O)CNC(=O)[C@H](CCCNC(=N)N)NC(=O)[C@@H]1CCCN1C(=O)[C@H](C)NC(=O)[C@H](CCSC)NC(=O)CNC(=O)CNC(=O)[C@H](Cc1ccccc1)NC(=O)[C@H](CCCCN)NC(=O)[C@H](Cc1c(C)cc(O)cc1C)NC(=O)[C@H](N)CCCNC(=N)N)[C@@H](C)O)C(=O)N[C@@H](CC(=O)O)C(=O)N[C@@H](CC(C)C)C(=O)N1CCC[C@H]1C(=O)N[C@H](C(=O)N[C@@H](CCCCN)C(=O)N[C@@H](CCCNC(=N)N)C(=O)N[C@@H](CCCNC(=N)N)C(=O)N[C@@H](C)C(N)=O)C(C)C gave a protein level of 136% (HT-22; western blot, measured: MnSOD; 10 µM, 24 h, added: amyloid beta 42 2 µM; relative to: HNG plus SS-31).
For CC(C)=CCC/C(C)=C/C[P+](c1ccccc1)(c1ccccc1)c1ccccc1, the GI50 was 0.053 µM (T47D; cell growth or viability, MTT; 72 h).
CC[C@H](C)[C@H](NC(=O)CNC(=O)[C@H](CC(C)C)NC(=O)CNC(=O)[C@H](CCCCN)NC(=O)[C@H](CCC(=O)O)NC(=O)[C@H](CCCCN)NC(=O)[C@@H](NC(=O)[C@H](Cc1ccccc1)NC(=O)[C@H](CC(=O)O)NC(=O)[C@H](CCCCN)NC(=O)[C@H](C)NC(=O)[C@H](CCCCN)NC(=O)[C@H](CC(N)=O)NC(=O)[C@H](CC(C)C)NC(=O)[C@H](Cc1c[nH]c2ccccc12)NC(=O)[C@H](CC(=O)O)NC(=O)[C@H](CCCCN)NC(=O)[C@@H](NC(=O)CNC(=O)[C@H](C)N)[C@@H](C)O)[C@@H](C)CC)C(=O)N[C@@H](CC(C)C)C(=O)N[C@@H](CO)C(=O)N[C@@H](C)C(=O)N[C@@H](C)C(=O)N[C@@H](C)C(=O)N[C@@H](CC(N)=O)C(=O)N[C@@H](C)C(=O)N[C@@H](C)C(=O)N[C@H](C(=O)N[C@@H](CC(N)=O)C(=O)O)[C@@H](C)CC gave an EC50 of over 100 µM (F11 cells; intracellular calcium, FLIPR; 0.1% BSA).
Under “caspase-3 positive cells”, CC(=O)N[C@@H](CCCCN)C(=O)N[C@H](C(=O)NCC(=O)N[C@@H](CC(=O)O)C(=O)N[C@@H](CCC(=O)O)C(=O)N[C@@H](CCCCN)C(=O)N[C@@H](CCCCN)C(=O)NCC(=O)NCC(=O)N[C@@H](Cc1ccc(O)cc1)C(=O)NCC(=O)N[C@@H](CCCNC(=N)N)C(=O)N[C@@H](CCCCN)C(=O)N[C@@H](CCCCN)C(=O)N[C@@H](CCCNC(=N)N)C(=O)N[C@@H](CCCNC(=N)N)C(=O)N[C@@H](CCC(N)=O)C(=O)N[C@@H](CCCNC(=N)N)C(=O)N[C@@H](CCCNC(=N)N)C(=O)N[C@@H](CCCNC(=N)N)C(N)=O)[C@@H](C)O is recorded as 2.23% (Huh-7; apoptosis, flow cytometry; 40 µM, 16 h).

For quick reference, copied from above:
For CCC[P+](c1ccccc1)(c1ccccc1)c1ccccc1, the GI50 was 2.39 µM (T47D; cell growth or viability, MTT; 72 h).
With O=C(O)c1ccc([PH]([Au][Cl])(c2ccccc2)c2ccccc2)cc1 the IC50 was 45.7 µM (CAKI-1; cell growth or viability, resazurin; 72 h).
